Experimental data from different studies.
Lines come from different studies, so protocols differ.
Rhomboid protease AarA: Rhomboid protease AarA (Providencia stuartii, UniProt P46116)
Sequence of UniProt P46116 (whole entry, looked up): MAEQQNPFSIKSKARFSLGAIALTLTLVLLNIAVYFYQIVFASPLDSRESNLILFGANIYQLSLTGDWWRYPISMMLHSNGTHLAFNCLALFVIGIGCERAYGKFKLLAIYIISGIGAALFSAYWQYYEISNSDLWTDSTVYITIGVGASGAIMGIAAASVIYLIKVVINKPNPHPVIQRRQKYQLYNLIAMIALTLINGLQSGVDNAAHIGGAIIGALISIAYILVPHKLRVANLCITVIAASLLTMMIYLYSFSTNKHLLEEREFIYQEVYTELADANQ
PPARG: Peroxisome proliferator-activated receptor gamma (PPARG, Homo sapiens, UniProt P37231)
Sequence of UniProt P37231 (whole entry, looked up): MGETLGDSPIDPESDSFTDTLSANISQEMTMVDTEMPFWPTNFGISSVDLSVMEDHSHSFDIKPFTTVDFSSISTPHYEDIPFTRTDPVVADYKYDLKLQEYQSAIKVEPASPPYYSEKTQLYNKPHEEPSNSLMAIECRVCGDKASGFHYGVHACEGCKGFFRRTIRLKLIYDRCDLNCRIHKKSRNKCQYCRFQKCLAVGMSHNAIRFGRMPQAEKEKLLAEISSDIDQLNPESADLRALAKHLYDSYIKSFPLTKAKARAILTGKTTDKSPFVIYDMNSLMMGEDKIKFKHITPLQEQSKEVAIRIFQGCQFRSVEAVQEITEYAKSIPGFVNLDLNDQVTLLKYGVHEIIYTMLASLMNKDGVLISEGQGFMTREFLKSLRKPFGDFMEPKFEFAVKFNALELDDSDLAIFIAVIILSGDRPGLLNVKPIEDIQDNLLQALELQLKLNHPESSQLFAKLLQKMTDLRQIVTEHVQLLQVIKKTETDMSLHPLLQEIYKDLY
HDAC1: Histone deacetylase 1 (HDAC1, Homo sapiens, UniProt Q13547)
Sequence of UniProt Q13547 (whole entry, looked up): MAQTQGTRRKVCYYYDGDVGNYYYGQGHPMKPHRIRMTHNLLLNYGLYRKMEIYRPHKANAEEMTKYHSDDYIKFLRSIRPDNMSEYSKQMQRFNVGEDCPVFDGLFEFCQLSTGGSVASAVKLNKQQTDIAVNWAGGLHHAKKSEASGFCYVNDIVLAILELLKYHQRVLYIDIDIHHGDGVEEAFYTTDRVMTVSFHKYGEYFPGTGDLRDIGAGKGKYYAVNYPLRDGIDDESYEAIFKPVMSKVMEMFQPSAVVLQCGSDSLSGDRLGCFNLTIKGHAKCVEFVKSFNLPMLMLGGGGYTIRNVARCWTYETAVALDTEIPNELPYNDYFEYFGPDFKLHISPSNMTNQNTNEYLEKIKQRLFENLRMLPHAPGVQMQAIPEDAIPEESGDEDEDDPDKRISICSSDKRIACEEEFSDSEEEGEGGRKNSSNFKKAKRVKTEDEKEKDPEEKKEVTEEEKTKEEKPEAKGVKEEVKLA
Sequence of UniProt P40306 (whole entry, looked up): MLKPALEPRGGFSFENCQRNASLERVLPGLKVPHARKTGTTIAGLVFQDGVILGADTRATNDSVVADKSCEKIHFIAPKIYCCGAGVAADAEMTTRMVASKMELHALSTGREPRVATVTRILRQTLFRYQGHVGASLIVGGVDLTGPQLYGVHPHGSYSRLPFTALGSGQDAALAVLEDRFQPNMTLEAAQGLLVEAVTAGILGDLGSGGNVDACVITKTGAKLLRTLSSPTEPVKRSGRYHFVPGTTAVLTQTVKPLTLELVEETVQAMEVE
Sequence of UniProt P28065 (whole entry, looked up): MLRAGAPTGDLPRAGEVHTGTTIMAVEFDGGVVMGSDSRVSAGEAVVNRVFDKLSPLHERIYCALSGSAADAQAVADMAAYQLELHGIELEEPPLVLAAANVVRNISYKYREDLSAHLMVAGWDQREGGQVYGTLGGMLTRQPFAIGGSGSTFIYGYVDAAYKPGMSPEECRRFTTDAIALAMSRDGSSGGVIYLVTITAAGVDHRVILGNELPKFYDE
Sequence of UniProt O96028 (whole entry, looked up): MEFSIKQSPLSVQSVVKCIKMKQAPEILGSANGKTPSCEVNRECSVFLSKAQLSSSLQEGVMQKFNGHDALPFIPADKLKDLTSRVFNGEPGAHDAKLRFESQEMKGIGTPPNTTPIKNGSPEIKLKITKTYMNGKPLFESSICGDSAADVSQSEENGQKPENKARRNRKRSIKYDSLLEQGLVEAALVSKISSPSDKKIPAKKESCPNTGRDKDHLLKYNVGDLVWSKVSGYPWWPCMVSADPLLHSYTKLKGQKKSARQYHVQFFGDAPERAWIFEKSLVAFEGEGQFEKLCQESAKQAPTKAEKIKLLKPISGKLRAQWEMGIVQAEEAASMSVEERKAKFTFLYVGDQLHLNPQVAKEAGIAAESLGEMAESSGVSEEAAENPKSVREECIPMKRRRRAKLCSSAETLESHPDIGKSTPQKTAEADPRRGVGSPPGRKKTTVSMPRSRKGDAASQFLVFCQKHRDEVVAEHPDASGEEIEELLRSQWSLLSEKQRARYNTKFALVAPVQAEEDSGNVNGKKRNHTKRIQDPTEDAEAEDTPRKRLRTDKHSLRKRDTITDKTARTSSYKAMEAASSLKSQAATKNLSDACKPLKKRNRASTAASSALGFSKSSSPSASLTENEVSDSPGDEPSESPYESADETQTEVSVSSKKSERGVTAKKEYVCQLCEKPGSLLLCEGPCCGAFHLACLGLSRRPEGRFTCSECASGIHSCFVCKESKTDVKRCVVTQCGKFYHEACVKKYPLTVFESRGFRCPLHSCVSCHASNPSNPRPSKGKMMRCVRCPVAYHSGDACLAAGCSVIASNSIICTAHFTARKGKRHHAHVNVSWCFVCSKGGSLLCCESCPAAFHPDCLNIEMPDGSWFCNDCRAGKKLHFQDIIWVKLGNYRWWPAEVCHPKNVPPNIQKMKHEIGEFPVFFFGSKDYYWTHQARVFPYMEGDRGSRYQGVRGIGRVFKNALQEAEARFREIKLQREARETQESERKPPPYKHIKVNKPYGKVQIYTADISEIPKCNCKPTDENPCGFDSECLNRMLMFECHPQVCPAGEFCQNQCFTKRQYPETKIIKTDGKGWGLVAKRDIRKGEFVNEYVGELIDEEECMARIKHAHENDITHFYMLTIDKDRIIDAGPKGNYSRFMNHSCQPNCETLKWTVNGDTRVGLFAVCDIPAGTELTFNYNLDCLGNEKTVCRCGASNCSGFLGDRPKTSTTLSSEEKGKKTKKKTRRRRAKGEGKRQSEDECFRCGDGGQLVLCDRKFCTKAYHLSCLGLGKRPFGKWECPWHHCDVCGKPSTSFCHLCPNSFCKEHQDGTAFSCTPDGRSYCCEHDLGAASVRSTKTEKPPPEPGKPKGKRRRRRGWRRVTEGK
Sequence of UniProt P07550 (whole entry, unmodified, looked up): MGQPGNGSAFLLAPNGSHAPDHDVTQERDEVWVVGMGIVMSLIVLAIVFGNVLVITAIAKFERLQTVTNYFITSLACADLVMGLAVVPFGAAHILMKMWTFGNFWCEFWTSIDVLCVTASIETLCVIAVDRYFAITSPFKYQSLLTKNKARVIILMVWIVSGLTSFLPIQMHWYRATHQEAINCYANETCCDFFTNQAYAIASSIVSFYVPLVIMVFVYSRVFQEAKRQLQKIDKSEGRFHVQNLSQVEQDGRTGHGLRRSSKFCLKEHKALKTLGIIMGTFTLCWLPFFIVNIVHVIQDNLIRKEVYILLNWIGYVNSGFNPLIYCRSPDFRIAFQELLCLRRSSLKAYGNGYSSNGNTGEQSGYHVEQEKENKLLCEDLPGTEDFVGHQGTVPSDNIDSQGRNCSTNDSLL
Sequence of UniProt O08914 (whole entry, looked up): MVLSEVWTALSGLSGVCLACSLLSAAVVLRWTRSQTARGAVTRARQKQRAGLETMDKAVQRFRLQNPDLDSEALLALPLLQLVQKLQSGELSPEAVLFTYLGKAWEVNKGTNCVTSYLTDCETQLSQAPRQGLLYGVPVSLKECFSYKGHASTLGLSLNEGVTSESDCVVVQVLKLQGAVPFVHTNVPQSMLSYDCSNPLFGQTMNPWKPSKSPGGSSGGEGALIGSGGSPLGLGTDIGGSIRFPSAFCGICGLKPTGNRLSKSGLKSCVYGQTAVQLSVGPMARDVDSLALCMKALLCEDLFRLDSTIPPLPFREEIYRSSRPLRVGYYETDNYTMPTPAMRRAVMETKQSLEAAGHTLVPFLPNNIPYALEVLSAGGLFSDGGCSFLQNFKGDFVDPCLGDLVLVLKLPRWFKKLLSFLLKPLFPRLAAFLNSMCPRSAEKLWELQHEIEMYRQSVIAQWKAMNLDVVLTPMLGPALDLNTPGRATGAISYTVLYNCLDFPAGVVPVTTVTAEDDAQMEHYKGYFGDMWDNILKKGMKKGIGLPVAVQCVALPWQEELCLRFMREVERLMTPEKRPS

Compound	target	test	test system	setting	IC50 [nM]
O=C1CC(c2ccc(Br)cc2)N1S(=O)(=O)c1cccc(Cl)c1 (stereo not shown)	Rhomboid protease AarA	enzyme activity, inhibitor, fluorescence			18600
Cc1cc2c(cc1N)n(C)c(=O)n2C	Peregrin, bromodomain (BRPF1, Homo sapiens, UniProt P55201)				157
COCCN(C)CC(=O)NC(Cc1ccc(-c2ccccc2)cc1)B(O)O (stereo not shown)	Proteasome subunit beta type-9 / Proteasome subunit beta type-10 (Homo sapiens, UniProt P28065+P40306)	β1i activity, inhibitor		immunoproteasome, with: Ac-PAL-AMC	> 10000
Cc1c(Cc2cccc(OC(C)(C)C(=O)O)c2)c2ccc(C(=O)N[C@H](C)c3cccc(C(C)(C)C)c3)cc2n1C	PPARG	ligand displacement, TR-FRET			2
COC(=O)CCCCCNC(=O)c1ccc(Nc2ncc(F)c(-c3cc(F)c4nc(C)n(C(C)C)c4c3)n2)cc1	HDAC1	enzyme activity, inhibitor			> 1000
Cc1cc(NC(=O)C(C(F)(F)F)C(F)(F)F)ccn1	Rhomboid protease AarA	enzyme activity, inhibitor, fluorescence			56000
N#Cc1ccc(-c2cnc(C(=O)CCCCCCc3ccccc3)o2)nc1	Faah (Mus musculus, UniProt O08914)	enzyme activity, inhibitor		with preincubation	< 10
[N-]=[N+]=N[C@]1(COP(=O)(O)OP(=O)(O)OP(=O)(O)O)O[C@@H](n2ccc(N)nc2=O)[C@@H](F)[C@@H]1O	Gag-Pol polyprotein, reverse transcriptase (gag-pol, Human immunodeficiency virus type 1 group M subtype B, UniProt P04585)	reverse transcriptase activity, inhibitor		DNA template, with: dCTP 1 µM	4600
O=C(NCCc1ccccc1)C(C(F)(F)F)C(F)(F)F	Rhomboid protease AarA	enzyme activity, inhibitor, fluorescence			15000
Cc1c(Cc2ccc(OC(C)(C)C(=O)O)cc2)c2ccc(C(=O)N[C@@H](C)c3cccc(C(F)(F)F)c3)cc2n1C	PPARG	ligand displacement, TR-FRET			12
CC(=O)NCCOc1ccccc1NC(=O)C(C(F)(F)F)C(F)(F)F	Rhomboid protease AarA	enzyme activity, inhibitor, fluorescence			27000
Nc1nonc1-c1nnc2c(n1)-c1ccccc1C2=O	NSD2 (Homo sapiens, UniProt O96028)	enzyme activity, inhibitor, AlphaLISA			110
CC(C)Cn1cc(Cc2cccc(OC(C)(C)C(=O)O)c2)c2cc(F)c(C(=O)N[C@@H](C)c3cccc(C(C)(C)C)c3)cc21	PPARG	ligand displacement, TR-FRET			11.7
Cc1cc(C(C)(C)C)ccc1OS(=O)(=O)Oc1cccc(/C=C/C(=O)NO)c1	HDAC1	enzyme activity, inhibitor, fluorescence			3190
Fc1ccc(Nc2nc(NC3CCCCC3)c3cc(Br)ccc3n2)cc1F	ADRB2 (Homo sapiens, UniProt P07550, Q170L)	β-arrestin2 recruitment, antagonist, BRET	HEK293	mutant Q170L, with: isoprenaline 1 µM	200
Cc1c(Cc2ccc(Cl)c(O[C@@H](C)C(=O)O)c2)c2ccc(C(=O)N[C@@H](C)c3ccc(C(C)(C)C)cc3)cc2n1CC1CCC1	PPARG	ligand displacement, TR-FRET			2.56

Repeated from above:
Compound	target	test	test system	setting	IC50 [nM]
COCCN(C)CC(=O)NC(Cc1ccc(-c2ccccc2)cc1)B(O)O (stereo not shown)	Proteasome subunit beta type-9 / Proteasome subunit beta type-10 (Homo sapiens, UniProt P28065+P40306)	β1i activity, inhibitor		immunoproteasome, with: Ac-PAL-AMC	> 10000
Cc1c(Cc2cccc(OC(C)(C)C(=O)O)c2)c2ccc(C(=O)N[C@H](C)c3cccc(C(C)(C)C)c3)cc2n1C	PPARG	ligand displacement, TR-FRET			2
